# Measurements pooled from the literature.
# Numbered parts are unrelated; each lists some results of a single study. Substitutions count along the parent as printed.

# Set 1
# Target: Centromere-binding protein 1, full length, His-tagged (CBF1, Saccharomyces cerevisiae, UniProt P17106, residues 1-351)
# UniProt P17106, sequence (whole entry, looked up): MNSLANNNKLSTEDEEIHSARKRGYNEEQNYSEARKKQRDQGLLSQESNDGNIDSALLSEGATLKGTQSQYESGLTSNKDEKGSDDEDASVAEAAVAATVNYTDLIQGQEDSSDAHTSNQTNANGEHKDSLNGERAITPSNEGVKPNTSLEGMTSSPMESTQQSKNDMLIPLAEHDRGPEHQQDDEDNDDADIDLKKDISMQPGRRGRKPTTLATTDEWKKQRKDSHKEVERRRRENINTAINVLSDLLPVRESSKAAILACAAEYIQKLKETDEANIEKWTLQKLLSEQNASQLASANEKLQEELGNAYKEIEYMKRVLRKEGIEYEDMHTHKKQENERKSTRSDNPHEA
# Method: competition protein-binding microarray
# Molecule type: double-stranded DNA, one strand shown
# Matrix: in vitro
# Tested at: 2 µM
# Setting: whole 60-bp probe, lowest competitor level
# Together with: Pho4 competitor, 0.05 µM
# Direction: higher = stronger binding
# All sequences stand within: … GTCTTGATTCGCTTGACGCTGCTG
Sequence,fluorescence intensity [a.u.]
AAATTACTAAGTTGCGACGTGGGTGACGCCGTATGA,54.1
CTTCTGTAAATTTGTCACTCCACTTGACGCGCCCCG,99.4
TGACAGAAAACTTAGATCGTGACGGCAAATTAAACG,256
ATGCTAAGAGATACGCTCGTGATGGCTTGGCGCAAT,123
AAATTACTAAGTTGGCACGTGTTTTACCCCGTATGA,1640
AGTCGAGTACGATTCACTGTGACGGTCATCCTAGAT,66.1
GTCTTGTCTCATTGTAGTGTGGGTGTCCCCACTTCA,86.8
GTCTTGTCTCATTGTATTGTGGGTGTCCCCACTTCA,93.8
CTTTCCCGATCTTTTCACGTGCCGTTAGCACATTTG,746
TTCCATCCCACATTCCTCGTGTTGGATTGGCTGCAA,80.9
CCGAATGATAGCGTCAGCGTGCAAACTGTGAACGCA,94
GGATCTTTGAAAGCAGCCGTGCCGATATACACAGTA,64.3
TTGGGAAATATTCCTCACGTGGAATTTTTTGAGCGC,1500
CGTCCTAGTGATTGCAACGTGGGTGCCATGAGGAAG,113
CTAAAGATGACCGGATTCGTGATGGGGCTAGACACA,64
CGGGGTTAAGTTTGCGACGTGGGTGGCTTGCAGCAG,63.7
CTTCTGTAAATTTGTCACTTAACTTGACGCGCCCCG,82.8
GTTGGAGATAGTGTAACCGTGACTCGATTTTTCAAG,190

# Set 2
# Target: Ras GTPase-activating protein-binding protein 1, RRM domain (G3BP1, Homo sapiens, UniProt Q13283)
# UniProt Q13283, sequence (whole entry, looked up): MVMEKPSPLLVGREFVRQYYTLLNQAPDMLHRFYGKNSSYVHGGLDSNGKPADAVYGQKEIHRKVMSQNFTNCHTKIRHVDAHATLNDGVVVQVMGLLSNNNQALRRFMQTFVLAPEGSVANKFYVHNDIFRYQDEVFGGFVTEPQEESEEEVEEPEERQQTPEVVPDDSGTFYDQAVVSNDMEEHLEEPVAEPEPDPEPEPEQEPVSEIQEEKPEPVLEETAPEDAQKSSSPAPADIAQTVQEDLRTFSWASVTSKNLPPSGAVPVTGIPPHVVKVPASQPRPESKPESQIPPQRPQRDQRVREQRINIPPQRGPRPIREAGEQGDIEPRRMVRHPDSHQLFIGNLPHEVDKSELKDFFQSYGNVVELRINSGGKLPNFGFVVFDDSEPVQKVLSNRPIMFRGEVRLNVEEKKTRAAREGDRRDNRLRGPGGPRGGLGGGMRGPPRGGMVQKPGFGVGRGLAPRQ
# Method: RNA Bind-n-Seq
# Molecule type: RNA
# Matrix: in vitro
# Tested at: 1 µM
# Setting: whole 134-nt RNA, ends assumed
# Together with: 150 mM KCl
# Baseline: input library
# Direction: higher = stronger binding
# All sequences stand within: GGGAGUUCUACAGUCCGACGAUC … UGGAAUUCUCGGGUGUCAAGG
Sequence,log2 enrichment
CUGUGCUACACAUCGUAUGUACCGAAUCGGGUUUUUUUGGGUUUUUUUGGGAAAAAAAGGGAAAGUAUUAUGUUACGCCGUUCGGAUCUG,-0.284
CAAGUCCUGUGCUACACAUCGUAUGUACCGAAUCGGUUUUUGGUUUGGUUUUUGGAAAGUAUUAUGUUACGCCGUUCGGAUCUGCACUUC,-0.285
ACCAUGCAGGUGGGCAUCUUUGGGAAGUGGGGCAAGGGGGGUAUAGGGAGGGGGGUAACACUUUGGGAACAGGUGGUCCCAGGUCGUUUC,0.812
UCCUCAAGUCCUGUGCUACACAUCGUAUGUACCGAAUCGGAGGAGGAAAGGAAAGUAUUAUGUUACGCCGUUCGGAUCUGCACUUCCAGC,-0.21
UCAAGUCCUGUGCUACACAUCGUAUGUACCGAAUCGGUUUGGGUUUGGUUUGGGGAAAGUAUUAUGUUACGCCGUUCGGAUCUGCACUUC,-0.255
UCAAGUCCUGUGCUACACAUCGUAUGUACCGAAUCGGUUUGGUUUGGGGUUUGGAAAGUAUUAUGUUACGCCGUUCGGAUCUGCACUUCC,-0.204
GUCCUGUGCUACACAUCGUAUGUACCGAAUCAAAUUUAAAUUUUUAAACCCCCCCAAAAAAGUAUUAUGUUACGCCGUUCGGAUCUGCAC,-0.92
CCUGUGCUACACAUCGUAUGUACCGAAUCGGGGAAAAAAGGGGAAAAAAGGGGAAAAAAGGAAAGUAUUAUGUUACGCCGUUCGGAUCUG,-0.11
UCCUGUGCUACACAUCGUAUGUACCGAAUCAAACCCCCCCAAACCCCCCCAAAUUUAAAAAAGUAUUAUGUUACGCCGUUCGGAUCUGCA,-0.136
UUCUAUUUCUUUCCUUAAUGUUUUUUUCUUCCCUACUGUUUUAUCCUCCCUUUGCUUUGGAAGGAUAUUGCUGCAUAUCGAGCUAAAGGA,-0.536
AAGUCCUGUGCUACACAUCGUAUGUACCGAAUCGGGCCCCGGCCCCGGGGCCCCGGGAAAGUAUUAUGUUACGCCGUUCGGAUCUGCACU,-0.658
GUCCUGUGCUACACAUCGUAUGUACCGAAUCGGGAAAAAAGGAAAAAAGGAAAAAAGGGAAAGUAUUAUGUUACGCCGUUCGGAUCUGCA,-0.00155
CAAGUCCUGUGCUACACAUCGUAUGUACCGAAUCGGGAAAGGGAAAGGGGAAAGGAAAGUAUUAUGUUACGCCGUUCGGAUCUGCACUUC,-0.255
UGGGAGGUGGAAUUUGUUUAUUUUUUUAGCUCAUUUCCAGGGGUGGGAAUUUUUUUUUAAUAUGUGUCAUGAAUAAAGUUGUUUUUGAAA,1.36

# Set 3
# Target: CCNE2, cyclin fold, Cln2 fusion (human)
# Method: yeast growth competition, sequencing
# Matrix: yeast
# Setting: strong parent motif
# Baseline: not given
# Direction: higher = stronger binding
# Parent: CDC25A docking peptide (human); PPHRRRLLFACSP; partner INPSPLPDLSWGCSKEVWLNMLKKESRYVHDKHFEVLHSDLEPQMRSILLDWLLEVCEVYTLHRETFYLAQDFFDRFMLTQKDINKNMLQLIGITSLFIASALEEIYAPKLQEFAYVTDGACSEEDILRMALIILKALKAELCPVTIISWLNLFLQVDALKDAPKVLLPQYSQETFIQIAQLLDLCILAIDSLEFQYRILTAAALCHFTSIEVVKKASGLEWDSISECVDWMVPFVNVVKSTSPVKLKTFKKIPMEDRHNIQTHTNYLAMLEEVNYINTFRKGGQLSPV
Substitution,normalised enrichment score
PPHRRLLLFACSP [R6L],0.956
PPHRRRLLYACSP [F9Y],1.15
PPHRRRLLFACSM [P13M],1.55
PPHNRRLLFACSP [R4N],1.28
PPDRRRLLFACSP [H3D],1.35
PPMRRRLLFACSP [H3M],0.941
PPHWRRLLFACSP [R4W],1.16
PPHRRRLLFACSQ [P13Q],1.92
PPRRRRLLFACSP [H3R],1.07
PPHRRWLLFACSP [R6W],1.64
YPHRRRLLFACSP [P1Y],2.32
PPHRRRLLFACSK [P13K],1.88
PPVRRRLLFACSP [H3V],4.34
PPHRRRILFACSP [L7I],1.83
PPHRRRLKFACSP [L8K],2.25
PPHRRRLDFACSP [L8D],3.81
LPHRRRLLFACSP [P1L],1.48
PPHRRMLLFACSP [R6M],1.63

# Set 4
# Target: ABI1, truncated, D143A, DHFR fusion (Arabidopsis thaliana)
# Method: DHFR PCA, deep sequencing
# Matrix: yeast
# Setting: methotrexate growth selection, single substitutions
# Together with: (+)-ABA 0.39 µM
# Baseline: wild-type fitted maximum
# Direction: higher = stronger binding
# Parent: PYL1, truncated, DHFR fusion (Arabidopsis thaliana); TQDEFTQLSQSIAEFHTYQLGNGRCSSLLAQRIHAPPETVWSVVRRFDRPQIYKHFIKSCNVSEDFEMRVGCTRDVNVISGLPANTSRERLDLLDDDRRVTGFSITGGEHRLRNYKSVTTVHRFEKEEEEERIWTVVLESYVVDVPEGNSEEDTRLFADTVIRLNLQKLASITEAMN; partner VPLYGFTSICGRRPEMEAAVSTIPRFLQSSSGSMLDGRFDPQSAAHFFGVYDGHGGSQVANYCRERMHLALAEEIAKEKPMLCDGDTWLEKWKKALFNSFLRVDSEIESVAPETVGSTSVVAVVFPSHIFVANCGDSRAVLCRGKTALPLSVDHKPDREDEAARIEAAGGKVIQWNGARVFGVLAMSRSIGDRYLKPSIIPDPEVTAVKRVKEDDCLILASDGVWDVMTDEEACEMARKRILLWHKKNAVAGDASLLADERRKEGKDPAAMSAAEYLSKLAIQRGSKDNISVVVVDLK
Substitution,relative binding score
L166M,0.794%
R46W,-7.68%
R24Q,72.1%
M176E,19%
V121I,20.1%
Q31C,4.81%
Q7L,33.1%
R123I,-2.61%
K168H,45.5%
M176K,19.2%
T106R,-3.71%
T154S,-7.69%
L82H,14.9%

# Excerpt of the above (set 4):
Substitution,relative binding score
Q31C,4.81%
T154S,-7.69%
M176E,19%
L166M,0.794%
T106R,-3.71%
